Measurements collected from several papers.
Each line is one published result; not all experiments were run side by side. “And” joins repeats or separate records; there may be more than shown. ± gives the spread as reported.
USP5: Ubiquitin carboxyl-terminal hydrolase 5 (USP5, Homo sapiens, UniProt P45974)
Chain of UniProt P45974 (whole entry, looked up): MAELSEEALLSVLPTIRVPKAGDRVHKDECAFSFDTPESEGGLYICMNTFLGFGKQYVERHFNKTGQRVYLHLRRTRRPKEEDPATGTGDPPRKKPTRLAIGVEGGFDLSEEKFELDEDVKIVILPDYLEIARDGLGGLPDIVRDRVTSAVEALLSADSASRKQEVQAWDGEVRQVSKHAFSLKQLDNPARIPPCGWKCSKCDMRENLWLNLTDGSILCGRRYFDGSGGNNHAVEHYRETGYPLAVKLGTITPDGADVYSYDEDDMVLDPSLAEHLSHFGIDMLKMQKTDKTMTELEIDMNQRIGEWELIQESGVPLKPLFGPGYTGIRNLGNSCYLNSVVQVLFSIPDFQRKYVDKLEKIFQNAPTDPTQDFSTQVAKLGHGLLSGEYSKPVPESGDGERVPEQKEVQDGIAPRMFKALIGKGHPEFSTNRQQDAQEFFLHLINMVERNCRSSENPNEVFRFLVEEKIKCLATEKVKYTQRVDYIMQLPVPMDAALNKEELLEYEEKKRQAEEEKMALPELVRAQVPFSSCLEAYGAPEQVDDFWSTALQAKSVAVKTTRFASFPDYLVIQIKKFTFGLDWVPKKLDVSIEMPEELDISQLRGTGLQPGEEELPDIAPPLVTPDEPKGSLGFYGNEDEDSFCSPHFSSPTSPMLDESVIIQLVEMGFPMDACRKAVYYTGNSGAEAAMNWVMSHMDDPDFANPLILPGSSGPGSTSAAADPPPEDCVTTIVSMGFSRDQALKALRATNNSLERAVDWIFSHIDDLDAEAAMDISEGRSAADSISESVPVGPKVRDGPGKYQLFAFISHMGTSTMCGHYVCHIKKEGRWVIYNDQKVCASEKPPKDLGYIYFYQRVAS
CASP9: Caspase-9 (CASP9, Homo sapiens, UniProt P55211)
Chain of UniProt P35821 (whole entry, looked up): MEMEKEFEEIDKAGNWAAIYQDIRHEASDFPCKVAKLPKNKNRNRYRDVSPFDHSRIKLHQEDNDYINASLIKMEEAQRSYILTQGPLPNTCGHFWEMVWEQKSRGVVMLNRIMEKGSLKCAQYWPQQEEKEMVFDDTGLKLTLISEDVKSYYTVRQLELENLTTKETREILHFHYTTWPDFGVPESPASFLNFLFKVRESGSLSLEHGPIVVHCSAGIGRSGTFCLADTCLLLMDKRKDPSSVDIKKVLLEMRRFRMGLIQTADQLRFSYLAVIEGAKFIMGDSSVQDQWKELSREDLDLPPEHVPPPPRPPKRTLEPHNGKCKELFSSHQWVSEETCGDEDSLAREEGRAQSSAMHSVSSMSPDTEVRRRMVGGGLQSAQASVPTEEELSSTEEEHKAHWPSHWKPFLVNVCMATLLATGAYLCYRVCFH
Chain of UniProt P55211 (whole entry, looked up): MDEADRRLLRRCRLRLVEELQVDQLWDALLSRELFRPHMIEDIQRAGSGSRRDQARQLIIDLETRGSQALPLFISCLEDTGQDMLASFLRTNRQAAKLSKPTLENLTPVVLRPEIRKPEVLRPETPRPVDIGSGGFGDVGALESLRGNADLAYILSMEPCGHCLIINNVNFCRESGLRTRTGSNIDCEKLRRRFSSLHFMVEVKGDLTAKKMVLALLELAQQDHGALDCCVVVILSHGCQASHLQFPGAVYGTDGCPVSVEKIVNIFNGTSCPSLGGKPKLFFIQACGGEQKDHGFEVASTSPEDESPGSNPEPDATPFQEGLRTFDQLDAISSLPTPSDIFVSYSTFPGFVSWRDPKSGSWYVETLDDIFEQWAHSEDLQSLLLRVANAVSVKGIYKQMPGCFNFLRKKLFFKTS
Chain of UniProt P18669 (whole entry, looked up): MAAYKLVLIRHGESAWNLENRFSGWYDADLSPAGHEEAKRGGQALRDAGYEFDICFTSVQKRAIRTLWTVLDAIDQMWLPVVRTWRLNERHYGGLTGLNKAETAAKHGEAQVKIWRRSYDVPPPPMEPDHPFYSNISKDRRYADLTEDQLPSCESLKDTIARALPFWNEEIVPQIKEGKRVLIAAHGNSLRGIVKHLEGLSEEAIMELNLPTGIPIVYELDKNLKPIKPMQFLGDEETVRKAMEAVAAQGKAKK
Chain of UniProt Q5MAI5 (whole entry, looked up): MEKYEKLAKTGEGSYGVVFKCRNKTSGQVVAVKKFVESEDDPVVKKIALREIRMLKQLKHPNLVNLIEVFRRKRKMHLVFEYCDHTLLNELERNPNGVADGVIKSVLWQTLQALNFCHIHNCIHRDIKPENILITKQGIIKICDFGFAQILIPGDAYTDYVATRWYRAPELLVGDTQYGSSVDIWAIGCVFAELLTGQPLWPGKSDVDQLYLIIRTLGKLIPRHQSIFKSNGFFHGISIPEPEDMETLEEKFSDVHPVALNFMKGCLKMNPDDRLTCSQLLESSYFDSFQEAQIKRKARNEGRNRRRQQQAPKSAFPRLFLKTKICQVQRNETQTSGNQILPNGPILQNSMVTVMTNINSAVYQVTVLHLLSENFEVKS
Chain of UniProt P49662 (whole entry, looked up): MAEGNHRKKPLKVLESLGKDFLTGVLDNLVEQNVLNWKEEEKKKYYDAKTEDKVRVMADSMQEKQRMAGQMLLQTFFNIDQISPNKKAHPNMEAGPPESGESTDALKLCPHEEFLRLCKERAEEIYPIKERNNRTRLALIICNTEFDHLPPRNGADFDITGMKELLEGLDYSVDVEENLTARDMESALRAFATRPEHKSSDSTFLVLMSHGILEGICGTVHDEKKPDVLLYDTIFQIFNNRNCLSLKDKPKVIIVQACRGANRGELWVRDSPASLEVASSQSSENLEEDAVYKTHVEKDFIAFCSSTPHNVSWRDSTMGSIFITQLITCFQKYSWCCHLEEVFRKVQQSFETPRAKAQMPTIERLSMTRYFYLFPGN
Chain of UniProt P01317 (whole entry, looked up): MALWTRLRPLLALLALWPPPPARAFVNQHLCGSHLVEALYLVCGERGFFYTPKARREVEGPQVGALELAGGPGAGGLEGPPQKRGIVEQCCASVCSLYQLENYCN
Chain of UniProt Q9HB29 (whole entry, looked up): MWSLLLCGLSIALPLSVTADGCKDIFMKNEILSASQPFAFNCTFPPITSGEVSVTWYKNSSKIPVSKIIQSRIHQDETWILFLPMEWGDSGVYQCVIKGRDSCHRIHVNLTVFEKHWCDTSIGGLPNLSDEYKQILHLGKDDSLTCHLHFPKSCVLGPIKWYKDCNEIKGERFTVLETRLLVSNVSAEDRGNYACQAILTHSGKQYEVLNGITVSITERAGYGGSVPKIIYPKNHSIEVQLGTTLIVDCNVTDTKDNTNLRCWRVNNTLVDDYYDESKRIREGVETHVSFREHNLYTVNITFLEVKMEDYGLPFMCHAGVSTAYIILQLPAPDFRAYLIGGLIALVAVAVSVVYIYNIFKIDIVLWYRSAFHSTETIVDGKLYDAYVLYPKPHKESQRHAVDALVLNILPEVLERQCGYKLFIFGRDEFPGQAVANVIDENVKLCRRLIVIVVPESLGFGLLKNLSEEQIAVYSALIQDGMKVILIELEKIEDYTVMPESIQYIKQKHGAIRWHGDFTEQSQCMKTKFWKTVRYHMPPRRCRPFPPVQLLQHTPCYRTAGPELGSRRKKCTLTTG
Chain of UniProt Q3UFF7 (whole entry, looked up): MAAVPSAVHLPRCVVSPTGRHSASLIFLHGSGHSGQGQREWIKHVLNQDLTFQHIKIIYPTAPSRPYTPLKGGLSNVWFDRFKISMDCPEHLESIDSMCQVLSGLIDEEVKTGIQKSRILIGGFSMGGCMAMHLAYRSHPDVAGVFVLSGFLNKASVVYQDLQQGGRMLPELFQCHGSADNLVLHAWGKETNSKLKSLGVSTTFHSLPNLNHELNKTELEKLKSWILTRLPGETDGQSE
Chain of UniProt A9UHW6 (whole entry, looked up): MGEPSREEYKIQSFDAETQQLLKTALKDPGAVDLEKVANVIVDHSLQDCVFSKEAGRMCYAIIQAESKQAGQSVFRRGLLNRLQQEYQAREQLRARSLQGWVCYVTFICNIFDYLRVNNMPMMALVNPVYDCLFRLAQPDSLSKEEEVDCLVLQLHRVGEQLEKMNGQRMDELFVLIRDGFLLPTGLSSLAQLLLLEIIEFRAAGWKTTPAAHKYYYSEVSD
Chain of UniProt P43220 (whole entry, looked up): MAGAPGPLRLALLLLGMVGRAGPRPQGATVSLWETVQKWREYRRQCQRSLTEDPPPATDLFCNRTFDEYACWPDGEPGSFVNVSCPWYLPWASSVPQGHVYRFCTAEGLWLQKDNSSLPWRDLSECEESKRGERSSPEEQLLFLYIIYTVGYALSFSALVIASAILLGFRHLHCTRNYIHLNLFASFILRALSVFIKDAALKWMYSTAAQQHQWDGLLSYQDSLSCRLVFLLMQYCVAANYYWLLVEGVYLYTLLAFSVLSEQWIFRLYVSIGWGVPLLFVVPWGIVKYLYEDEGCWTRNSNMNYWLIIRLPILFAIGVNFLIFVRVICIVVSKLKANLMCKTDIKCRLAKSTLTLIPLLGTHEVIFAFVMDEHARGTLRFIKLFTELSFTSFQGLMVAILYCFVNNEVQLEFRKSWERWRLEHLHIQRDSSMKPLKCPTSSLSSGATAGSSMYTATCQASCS
Chain of UniProt P22001 (whole entry, looked up): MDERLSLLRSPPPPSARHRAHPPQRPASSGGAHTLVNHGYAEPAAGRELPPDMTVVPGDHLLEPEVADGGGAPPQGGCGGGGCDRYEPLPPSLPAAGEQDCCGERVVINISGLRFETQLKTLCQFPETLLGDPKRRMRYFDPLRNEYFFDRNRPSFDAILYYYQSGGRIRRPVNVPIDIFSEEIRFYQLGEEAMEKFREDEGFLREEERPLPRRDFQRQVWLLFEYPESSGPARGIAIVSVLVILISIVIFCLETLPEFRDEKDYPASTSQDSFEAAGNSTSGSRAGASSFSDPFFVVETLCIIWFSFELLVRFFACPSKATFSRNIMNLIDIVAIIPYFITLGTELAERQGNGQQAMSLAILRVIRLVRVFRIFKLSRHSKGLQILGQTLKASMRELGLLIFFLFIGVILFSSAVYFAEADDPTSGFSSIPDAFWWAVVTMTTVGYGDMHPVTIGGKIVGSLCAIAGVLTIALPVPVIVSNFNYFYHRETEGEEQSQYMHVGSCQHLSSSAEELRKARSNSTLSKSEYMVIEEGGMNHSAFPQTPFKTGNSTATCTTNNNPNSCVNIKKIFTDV

For O=C1C2=[N+]([O-])[C@H]3CCCC[C@H]3[N+]([O-])=C2c2ccccc21, the inhibition was 73% (USP5; enzyme activity, inhibitor; 17 µM).
For O=C(Cc1ccc(OCc2ccccc2)cc1)NC1(C(=O)O)CCN(C(=O)c2ccc(-c3cccc(Cl)c3)cc2)CC1, “activity vs control” read 92% (CDKL4 (Homo sapiens, UniProt Q5MAI5); enzyme activity, inhibitor; 10 µM).
The kinact/KI of CC(=O)N1CCC[C@H]1C(=O)N[C@@H](CCC(N)=O)C(=O)N[C@@H](C)C(=O)N[C@@H](CC(=O)O)C(=O)COC(=O)c1c(C)cccc1C is reported as 120000 M⁻¹ s⁻¹ (CASP9; enzyme activity, inhibitor).
O=C(CCC(F)(F)F)Nc1ccc([C@H]2[C@@H](F)[C@@H](F)C[C@@H](F)[C@H]2F)cc1 has a hepatic clearance of 55 mL/min/kg (liver microsome stability; mouse liver microsomes; 1 µM).
With CC[C@H](C)[C@H](NC(=O)[C@H](CC(=O)O)NC(C)=O)C(=O)N[C@@H](Cc1ccccc1)C(=O)N[C@@H](Cc1ccccc1)C(=O)N[C@@H](CCCNC(=N)N)C(=O)N[C@@H](Cc1ccc(O)cc1)C(=O)N[C@@H](CC(N)=O)C(=O)NCC(=O)N[C@@H](CCCCN)C(=O)N[C@H](C(=O)N[C@@H](Cc1c[nH]c2ccccc12)C(=O)N[C@@H](Cc1c[nH]c2ccccc12)C(=O)N[C@@H](CCCNC(=N)N)C(=O)O)C(C)C the α-helix content was 59% (Insulin (INS, Bos taurus, UniProt P01317); circular dichroism; INS-peptide complex; 0 min, initial stage, added: INS 350 µM).
For CC(C)[C@@H]1NC(=O)[C@H](Cc2ccccc2)NC(=O)CSC[C@@H](C(N)=O)NC(=O)[C@H](CCC(=O)O)NC(=O)[C@H](CO)NC(=O)[C@H](Cc2c[nH]c3cccc(Cl)c23)NC(=O)[C@H](C2CCCCC2)NC(=O)[C@H](C(C)C)NC(=O)[C@H](Cc2ccc(O)cc2)NC(=O)[C@H](CC(=O)O)NC(=O)[C@H](Cc2c[nH]c3ccccc23)NC(=O)[C@H](Cc2ccc(N)nc2)NC(=O)[C@H](Cc2c[nH]c3ccc(Cl)cc23)NC(=O)[C@H](CCC(=O)O)NC1=O, the remaining activity was 35.5% (Interleukin-1 receptor-like 2 (IL1RL2, Homo sapiens, UniProt Q9HB29); reporter gene (SEAP), inhibitor, HEK-Blue IL-36R reporter; HEK-Blue IL-36R cells; 100 µM, 6 h, added: IL-36β 30 ng/mL).
For Nc1nc(SCc2ccc(Cl)cc2)nn1S(=O)(=O)c1ccc2ncsc2c1, “probe labeling increase” read 2.8 fold (Lysophospholipase-like protein 1 (Mus musculus, UniProt Q3UFF7); enzyme activity, activator, gel-based ABPP; purified protein; concentration not given, added: FP-rhodamine; relative to: DMSO).
CC(=O)N[C@@H](CC(C)C)C(=O)N[C@@H](CCC(=O)O)C(=O)N[C@H](C(=O)N[C@@H](CC(=O)O)C(=O)COC(=O)c1c(C)cccc1C)C(C)C gave a kinact/KI of 6400 M⁻¹ s⁻¹ (Caspase-4 (CASP4, Homo sapiens, UniProt P49662); enzyme activity, inhibitor).
CC(C=CC=C(C)C=CC1=C(C)CCCC1(C)C)=CC=O — result for “Pearson correlation coefficient”: 0.47 (Rhodopsin (RHO, Homo sapiens, UniProt P08100, E181K); ER retention, immunostaining co-localization, refers to: opsin with calnexin; COS-7 transfected E181K; 20.00 µM).
With COP(=O)(OC)OC[C@H]1OC(O)(COP(=O)(OC)OC)[C@@H](O)[C@@H]1O (stereo partly shown) the enzyme activity was 5.26 and 7.89 and 6.82 (Phosphoglycerate mutase 1 (Homo sapiens, UniProt P18669); concentration not given, unit not given; relative to: control set to 100).
The inhibition of O=C(CSc1nnc2c(n1)CCCC2)c1ccc(Cl)cc1 is reported as 49% (USP5; enzyme activity, inhibitor; 17 µM).
Under “isoTOP-ABPP competition ratio”, CCCCCC(O)/C=C/C=O (stereo not shown) is recorded as 3.3 (MIF4G domain-containing protein (MIF4GD, Homo sapiens, UniProt A9UHW6); competitive isoTOP-ABPP, refers to: MIF4GD cysteine peptide; proteome, soluble, MDA-MB-231; 100 µM, added: iodoacetamide probe; relative to: DMSO over compound-treated, higher = stronger cysteine blockade).
Oc1ccc(/C=C/c2cc(O)cc(O)c2)cc1: “cooperativity factor σ” 18.6 (O-methyltransferase (Sorghum bicolor, UniProt A0A1B6PFV1); biolayer interferometry; added: SFG+).
The inhibition of O=S1(=O)C=C(N/C=N/c2ccccc2F)c2ccccc21 is reported as 3% (USP5; enzyme activity, inhibitor; 17 µM).
CC(=O)C12NC(C)(C)CC1(C)C(=O)C1=C2c2c(c3c4n2C(C)(C)CC2=C4C4(CC(C)(C)NC(C)(C4)C2=O)CC3(C)C)C(=O)C(C)(C)N1 (single isomer, unassigned; (-)) has an inhibition of 93.66 ± 0.02% (KCNA3 (Homo sapiens, UniProt P22001); antagonist; HEK293T; 10 µM).
The efficacy of CC[C@H](C)[C@H](NC(=O)[C@H](Cc1ccccc1)NC(=O)[C@H](CCC(=O)O)NC(=O)[C@H](CCCCN)NC(=O)[C@H](C)NC(=O)[C@H](C)NC(=O)[C@H](CCC(N)=O)NC(=O)CNC(=O)[C@H](CCC(=O)O)NC(=O)[C@H](CC(C)C)NC(=O)[C@H](Cc1ccc(O)cc1)NC(=O)[C@H]1CCC[C@@H]1NC(=O)[C@H](CO)NC(=O)C(C)(C)NC(=O)[C@H](CC(=O)O)NC(=O)[C@H](CO)NC(=O)[C@@H](NC(=O)[C@H](Cc1ccccc1)NC(=O)[C@@H](NC(=O)CNC(=O)[C@H](CCC(=O)O)NC(=O)[C@H](C)NC(=O)[C@@H](N)Cc1c[nH]cn1)[C@@H](C)O)[C@@H](C)O)C(=O)N[C@@H](C)C(=O)N[C@@H](Cc1c[nH]c2ccccc12)C(=O)N[C@@H](CC(C)C)C(=O)N[C@H](C(=O)N[C@@H](CCCCN)C(=O)NCC(=O)N[C@@H](CCCNC(=N)N)C(N)=O)C(C)C is reported as 97 ± 3% (GLP1R (Homo sapiens, UniProt P43220); cAMP production, agonist, GloSensor luminescence; HEK293; 15 min; relative to: GLP-1).
CC(=O)N[C@@H](CO)C(=O)N[C@@H](Cc1ccccc1)C(=O)N[C@@H](C)C(=O)N[C@@H](CC(=O)O)C(=O)COC(=O)c1c(C)cccc1C gave a kinact/KI of 55200 M⁻¹ s⁻¹ (CASP9; enzyme activity, inhibitor).
The remaining protein of Cn1c(=O)n(C2CCC(=O)NC2=O)c2ccc(C3CCN(CC(=O)Nc4cccc(CS(=O)(=O)N5CC[C@H](Nc6cccc(-c7sc(C(=O)O)c(OCC(=O)O)c7Cl)c6)CC5(C)C)c4)CC3)cc21 (stereo partly shown) is reported as 4% and 22% and 28% and 15% and 10% and 5% and 7% (Tyrosine-protein phosphatase non-receptor type 1 (Mus musculus, UniProt P35821); Western blot; C57BL/6 mouse, splenocytes; intravenous, 100 mg/kg every 4 days, 2 h after last dose).
For CC[C@H](C)[C@H](NC(=O)[C@H](CCCC(=O)O)NC(=O)[C@H](CC(=O)O)NC(C)=O)C(=O)N[C@@H](CC(=O)O)C(=O)COC(=O)c1c(C)cccc1C, the kinact/KI was 6100 M⁻¹ s⁻¹ (CASP9; enzyme activity, inhibitor).
CS(=O)(=O)c1ccc(-c2ccc([C@H]3[C@@H](F)[C@@H](F)C[C@@H](F)[C@H]3F)cc2)cn1 gave a hepatic clearance of 7.3 mL/min/kg (liver microsome stability; dog liver microsomes; 1 µM).
O=C1CCCC(O)=C1C1(O)C(=O)c2ccccc2C1=O has an inhibition of 84% (USP5; enzyme activity, inhibitor; 17 µM).
For CC(=O)N[C@@H](CC(C)C)C(=O)N[C@@H](CCC(=O)O)C(=O)N[C@H](C(=O)N[C@@H](CC(=O)O)C(=O)COC(=O)c1c(C)cccc1C)[C@@H](C)O, the kinact/KI was 79300 M⁻¹ s⁻¹ (CASP9; enzyme activity, inhibitor).
